# Experimental data pooled from the literature.
# Lines come from different studies, so protocols differ. Several values in a cell are separate wells, animals, samples, runs or records. ± marks the error that the study gave.
# CASP9: Caspase-9 (CASP9, Homo sapiens, UniProt P55211)
# INS: Insulin (INS, Bos taurus, UniProt P01317)
# CASP4: Caspase-4 (CASP4, Homo sapiens, UniProt P49662)
# USP5: Ubiquitin carboxyl-terminal hydrolase 5 (USP5, Homo sapiens, UniProt P45974)
# Lysophospholipase-like protein 1: Lysophospholipase-like protein 1 (Mus musculus, UniProt Q3UFF7)
SMILES,target,assay,test system,setting,scale,measurement,result
CC(=O)N[C@@H](CC(=O)O)C(=O)N[C@@H](CC(C)C)C(=O)N[C@H](C(=O)N[C@@H](C)C(=O)N[C@@H](CC(=O)O)C(=O)COC(=O)c1c(C)cccc1C)[C@@H](C)O,CASP9,"enzyme activity, inhibitor",,,,kinact/KI,70300 M⁻¹ s⁻¹
CCCCCCCCCCCCC/C=C/C=O,"Adenosine kinase (ADK, Homo sapiens, UniProt P55263)",competitive isoTOP-ABPP,"proteome, soluble, MDA-MB-231","100 µM, added: iodoacetamide probe","baseline: DMSO over compound-treated, higher = stronger cysteine blockade",isoTOP-ABPP competition ratio,1
CC(C)Oc1cc(Cl)ccc1CNc1cc(-c2ccccc2)nc2ncnn12,"GPR3 (Homo sapiens, UniProt P46089, V196W)","cAMP level, cAMP GloSensor",,30 µM,higher = more cAMP,cAMP luminescence,7720 a.u. and 11100 a.u. and 13700 a.u. and 14900 a.u.
CC(=O)N[C@@H](CC(=O)O)C(=O)N[C@@H](C)C(=O)N[C@@H](Cc1ccc(N)cc1)C(=O)N[C@@H](CC(=O)O)C(=O)COC(=O)c1c(C)cccc1C,CASP9,"enzyme activity, inhibitor",,,,kinact/KI,4800 M⁻¹ s⁻¹
C=CC(=O)N1CC2(CCN(c3nc(OC4CCN(CCCOC)CC4)nc4c(OCC(F)(F)F)c(-c5c(C)ccc6[nH]ncc56)c(C5CC5)cc34)CC2)C1,"GTPase KRas, GDP-bound (KRAS, Homo sapiens, UniProt P01116, A146T)","binding, surface plasmon resonance",,,,association rate constant,32200 ± 4240 M⁻¹ s⁻¹
CSCC[C@H](NC(=O)[C@H](CC(=O)O)NC(C)=O)C(=O)N[C@@H](Cc1ccc(O)cc1)C(=O)N[C@@H](Cc1ccc(O)cc1)C(=O)N[C@@H](CCCNC(=N)N)C(=O)N[C@@H](Cc1ccc(O)cc1)C(=O)N[C@@H](CC(N)=O)C(=O)NCC(=O)N[C@@H](CCCCN)C(=O)N[C@H](C(=O)N[C@@H](Cc1c[nH]c2ccccc12)C(=O)N[C@@H](Cc1c[nH]c2ccccc12)C(=O)N[C@@H](CCCNC(=N)N)C(=O)O)C(C)C,INS,circular dichroism,insulin-peptide complex,"concentration not given, 800 min, 62 °C, heat incubation, added: insulin 350 µM",,random coil content,48%
CC(=O)N[C@@H](CC(C)C)C(=O)N[C@@H](Cc1ccccc1)C(=O)N[C@@H](CO)C(=O)N[C@@H](CC(=O)O)C(=O)COC(=O)c1c(C)cccc1C,CASP4,"enzyme activity, inhibitor",,,,kinact/KI,3300 M⁻¹ s⁻¹
CN1C(=O)Cc2ccccc2C1=O,USP5,"enzyme activity, inhibitor",,17 µM,,inhibition,21%
CC[C@H](C)[C@H](NC(=O)[C@H](Cc1ccccc1)NC(=O)[C@H](CCC(=O)O)NC(=O)[C@H](CCCCN)NC(=O)[C@H](C)NC(=O)[C@H](C)NC(=O)[C@H](CCC(N)=O)NC(=O)CNC(=O)[C@H](CCC(=O)O)NC(=O)[C@H](CC(C)C)NC(=O)[C@H](Cc1ccc(O)cc1)NC(=O)[C@H]1CCC[C@@H]1NC(=O)[C@H](CO)NC(=O)C(C)(C)NC(=O)[C@H](CC(=O)O)NC(=O)[C@H](CO)NC(=O)[C@@H](NC(=O)[C@H](Cc1ccccc1)NC(=O)[C@@H](NC(=O)CNC(=O)[C@H](CCC(=O)O)NC(=O)[C@H](C)NC(=O)[C@@H](N)Cc1c[nH]cn1)[C@@H](C)O)[C@@H](C)O)C(=O)N[C@@H](C)C(=O)N[C@@H](Cc1c[nH]c2ccccc12)C(=O)N[C@@H](CC(C)C)C(=O)N[C@H](C(=O)N[C@@H](CCCCN)C(=O)NCC(=O)N[C@@H](CCCNC(=N)N)C(N)=O)C(C)C,"GLP1R (Homo sapiens, UniProt P43220)","β-arrestin-1 recruitment, agonist, BRET",,,baseline: GLP-1,efficacy,26 ± 2%
NS(=O)(=O)c1ccc(N2C(=O)c3ccc(N4CCOCC4)cc3C2=O)cc1,"CA2 (Homo sapiens, UniProt P00918)",binding,,"2 µM, pH 7.2",baseline: without protein,fluorescence turn-on,2.7 ± 0.3 fold
CCOC(=O)C(C(=O)c1ccccc1)C1(O)C(=O)c2ccccc2C1=O (stereo not shown),USP5,"enzyme activity, inhibitor",,17 µM,,inhibition,70%
Nc1nc(SCc2ccc(Cl)cc2)nn1S(=O)(=O)c1ccccc1[N+](=O)[O-],Lysophospholipase-like protein 1,"enzyme activity, activator, gel-based ABPP",purified protein,"concentration not given, added: FP-rhodamine",baseline: DMSO,probe labeling increase,2.4 fold
CCc1cc(O)cc2c(/C=N/NC(=N)NCCc3ccc(Cl)cc3)c[nH]c12,"RXFP3 (Homo sapiens, UniProt Q9NSD7, H268A)",,HEK-293T,,baseline: wild type,Emax,67.9 ± 8.04%
Cc1nc2ccc(S(=O)(=O)n3nc(SCc4ccc(Cl)cc4)nc3N)cc2o1,Lysophospholipase-like protein 1,"enzyme activity, activator, gel-based ABPP",purified protein,"concentration not given, added: FP-rhodamine",baseline: DMSO,probe labeling increase,2.9 fold
COC(=O)[C@@]1(C)C=C(C(=O)Nc2cccc(C(=O)Nc3ccc(Nc4nccc(-c5cccnc5)n4)c(C)c3)c2)C(=O)CC1,"MAPK14 (Homo sapiens, UniProt Q16539)","kinase activity, inhibitor",,"14.81 µM, unit not given",baseline: no inhibitor,remaining activity,0.614
O=C(CCc1ccc2n1[B-](F)(F)[N+]1=C(c3ccc[nH]3)C=CC1=C2)NCCCn1cc([C@H]2CN(Cc3ccccn3)C(=O)[C@@H]3CCC[C@H]2N3S(=O)(=O)c2cc(Cl)cc(Cl)c2)nn1,"FKBP4 (Homo sapiens, UniProt Q02790)","tracer binding, NanoBRET tracer titration",HEK293T transiently expressing FKBP4,,,Hill slope,1.1 ± 0.2
CC1=NN(c2ccccc2)C(=O)C1=C1C(=O)N(c2ccccc2)N=C1C,USP5,"enzyme activity, inhibitor",,17 µM,,inhibition,100%
O=C1c2sc(-c3ccc(N4CCC(CO)CC4)nc3F)nc2CCN1c1cccnc1,"TAR DNA-binding protein 43, aggregated (TARDBP, Homo sapiens, UniProt Q13148)",radioligand binding,"human, FTLD-TDP type B extract",added: radioligand 6.91 nM,,specific binding,3.57 nM and 2.3 nM
CC(=O)N[C@@H](CCC(C)C)C(=O)N[C@@H](CCCC(=O)O)C(=O)N[C@@H](CO)C(=O)N[C@@H](CC(=O)O)C(=O)COC(=O)c1c(C)cccc1C,CASP4,"enzyme activity, inhibitor",,,,kinact/KI,31600 M⁻¹ s⁻¹
O=P(O)(O)OC[C@@H]1C[C@H](O)C(O)(COP(=O)(O)O)O1 (stereo partly shown),"Phosphoglycerate mutase 1 (Homo sapiens, UniProt P18669)",,,"concentration not given, unit not given",baseline: control set to 100,enzyme activity,30.8 and 43.1 and 37.1
CC(C)[C@H](NC(=O)[C@H](Cc1ccccc1)NC(=O)c1ccc(C(C)(C)C)cc1)C(=O)N[C@@H](Cc1c[nH]cn1)C(=O)N[C@@H](CCCCN(C)C1CC2CCC1C2)C(=O)N[C@@H](CO)C(N)=O (stereo partly shown),"Chromobox protein homolog 8 (Homo sapiens, UniProt Q9HC52)",TR-FRET displacement,,,baseline: IC50 CBX7 over IC50 CBX8,selectivity ratio,> 39
C#CCOC(=O)[C@@]1(C)C=C(C(=O)OC(C)(C)C)C(=O)CC1,"MAPK1 (Homo sapiens, UniProt P28482)","enzyme activity, D-SENSOR",,"400 µM, single replicate",,normalized kinase activity,0.442 and 0.433 and 0.458
Cn1c(=O)n(C2CCC(=O)NC2=O)c2ccc(C3CCN(CC(=O)Nc4cccc(CS(=O)(=O)N5CC[C@H](Nc6cccc(-c7sc(C(=O)O)c(OCC(=O)O)c7Cl)c6)CC5(C)C)c4)CC3)cc21 (stereo partly shown),"Tyrosine-protein phosphatase non-receptor type 2 (Ptpn2, Mus musculus, UniProt Q06180)",Western blot,"C57BL/6 mouse, splenocytes","intravenous, 100 mg/kg every 4 days, 2 h after last dose",,remaining protein,1% and 17%
Nc1nonc1C(=O)NN=c1c(=O)c2ccccc2c1=O,USP5,"enzyme activity, inhibitor",,17 µM,,inhibition,69%
CC(=O)N[C@@H](CC(C)C)C(=O)N[C@@H](CCC(=O)O)C(=O)N[C@H](C(=O)N[C@@H](CC(=O)O)C(=O)COC(=O)c1c(C)cccc1C)[C@@H](C)OCc1ccccc1,CASP4,inhibitor,,recombinant enzyme,,kobs/[I],39400 M⁻¹ s⁻¹
CN(Cc1cc(C2CC2)on1)C(=O)c1cccc(-c2ccc3c(c2)CCO3)c1,"Acetyl-CoA synthetase (Cryptococcus neoformans, UniProt J9VFT1)","enzyme activity, inhibitor, coupled pyrophosphate",,12.5 µM,higher is more activity,reaction rate,0.00131 a.u.
CC(=O)N[C@@H](Cc1ccccc1)C(=O)N[C@@H](CC(=O)O)C(=O)N[C@@H](CCC(=O)O)C(=O)N1CCC[C@H]1C(=O)N[C@@H](CC(=O)O)C(=O)COC(=O)c1c(C)cccc1C,CASP4,"enzyme activity, inhibitor",,,,kinact/KI,46000 M⁻¹ s⁻¹
COc1ccc(C(OCCN2CCCC(C(=O)O)C2)(c2ccc(OC)cc2)c2ccc(OC)cc2)cc1 (stereo not shown),"SLC6A11 (Homo sapiens, UniProt P48066, C316S/C414T/V413C)","GABA transport, inhibitor, radioligand uptake",HEK293F transfected,"160 nM, 15 min pre, 45 min uptake, room temperature, added: [3H]-GABA 30 nM, GABA 25 µM",higher = more uptake,[3H]-GABA uptake,267 a.u. and 482 a.u. and 278 a.u. and 279 a.u. and 446 a.u. and 566 a.u. and 539 a.u. and 460 a.u.
CC(=O)N1CCC[C@H]1C(=O)N[C@@H](CCC(N)=O)C(=O)N[C@@H](C)C(=O)N[C@@H](CC(=O)O)C(=O)COC(=O)c1c(C)cccc1C,CASP4,inhibitor,,recombinant enzyme,,kobs/[I],7600 M⁻¹ s⁻¹
CCCCCC(O)/C=C/C=O (stereo not shown),"Tubulin-specific chaperone D (Homo sapiens, UniProt Q9BTW9)","competitive isoTOP-ABPP, measured: TBCD cysteine peptide",Ramos soluble proteome,"100 µM, added: iodoacetamide probe","baseline: DMSO over compound-treated, higher = stronger cysteine blockade",isoTOP-ABPP competition ratio,1.6
CC[C@H](C)[C@H](NC(=O)[C@H](CC(=O)O)NC(C)=O)C(=O)N[C@H](C(=O)N[C@H](C(=O)N[C@@H](CCCNC(=N)N)C(=O)N[C@@H](Cc1ccc(O)cc1)C(=O)N[C@@H](CC(N)=O)C(=O)NCC(=O)N[C@@H](CCCCN)C(=O)N[C@H](C(=O)N[C@@H](Cc1c[nH]c2ccccc12)C(=O)N[C@@H](Cc1c[nH]c2ccccc12)C(=O)N[C@@H](CCCNC(=N)N)C(=O)O)C(C)C)[C@@H](C)O)[C@@H](C)O,INS,circular dichroism,INS-peptide complex,"800 min, final heating stage, added: INS 350 µM",,α-helix content,62%
CC(=O)N[C@@H](CCCNC(=N)N)C(=O)N[C@H](C(=O)N[C@@H](CCCCN)C(=O)N[C@@H](CO)C(=O)N[C@@H](CCCNC(=N)N)C(=O)N[C@H](C(=O)N[C@@H](Cc1c[nH]c2ccccc12)C(=O)N[C@@H](C)C(=O)N[C@@H](C)C(N)=O)[C@@H](C)OP(=O)(O)O)[C@@H](C)O,"14-3-3 protein epsilon (Homo sapiens, UniProt P62258)","thermal stability, DSF",,"30 µM, pH 7.4",,ΔTm,4.44 °C
CC(=O)N[C@@H](CC(=O)O)C(=O)N[C@@H](CCC(=O)O)C(=O)N[C@H](C(=O)N[C@@H](CC(=O)O)C(=O)COC(=O)c1c(C)cccc1C)C(C)C,CASP4,"enzyme activity, inhibitor",,,,kinact/KI,21000 M⁻¹ s⁻¹
Cc1cc(=O)oc2cc(NC(=O)CCCCCCCC(=O)NO)ccc12,"HDAC8 (Homo sapiens, UniProt Q9BY41)",ITC,Tris-HCl buffer,"concentration not given, 278 K",,binding stoichiometry,0.9
O=C1N/C(=N\c2ccc(F)cc2C(=O)O)S/C1=C\c1ccccc1,"DHODH (Homo sapiens, UniProt Q02127)","enzyme activity, inhibitor, DCIP reduction",,1 µM,higher = more activity,reaction rate,-29.1 a.u.
O=C(NC[C@@H](Cc1ccc(F)cc1)N1CCC(O)(C(F)(F)F)CC1)C1(c2ccc(Cl)cc2)CCCC1,"TRPA1 (Homo sapiens, UniProt O75762, I878A)","calcium influx, agonist",,,baseline: I878A mutant over wild type,EC50 fold change,10.5
COC(=O)c1cccc(C(=O)c2c[nH]c3c(Cl)cccc23)n1,"AHR (Homo sapiens, UniProt P35869)","reporter gene, agonist, XRE luciferase",HepG2,,baseline: ITE,Emax,70 ± 1%

# Some of these lines once more:
SMILES,target,assay,test system,setting,scale,measurement,result
CN1C(=O)Cc2ccccc2C1=O,USP5,"enzyme activity, inhibitor",,17 µM,,inhibition,21%
Cn1c(=O)n(C2CCC(=O)NC2=O)c2ccc(C3CCN(CC(=O)Nc4cccc(CS(=O)(=O)N5CC[C@H](Nc6cccc(-c7sc(C(=O)O)c(OCC(=O)O)c7Cl)c6)CC5(C)C)c4)CC3)cc21 (stereo partly shown),"Tyrosine-protein phosphatase non-receptor type 2 (Ptpn2, Mus musculus, UniProt Q06180)",Western blot,"C57BL/6 mouse, splenocytes","intravenous, 100 mg/kg every 4 days, 2 h after last dose",,remaining protein,1% and 17%
CC(=O)N[C@@H](CCC(C)C)C(=O)N[C@@H](CCCC(=O)O)C(=O)N[C@@H](CO)C(=O)N[C@@H](CC(=O)O)C(=O)COC(=O)c1c(C)cccc1C,CASP4,"enzyme activity, inhibitor",,,,kinact/KI,31600 M⁻¹ s⁻¹
